Published values collected from several papers.
Each line is one published result; not all experiments were run side by side.
Cell line: A-375

`Cc1cc(C)cc(/C=C(\C(=O)c2cc(C)[nH]c(=O)c2C(=O)N2CCCCC2)c2cc(C)cc(C)c2)c1` has an IC50 of over 10 µM (cell proliferation, MTT; 72 h).
For `Cn1cnc2c(F)c(Nc3ccc(Br)cc3Cl)c(C(=O)NOCCO)cc21`, the EC50 was 0.042 µM (cell proliferation).
`CCCOc1ccc(/C=C(\C(=O)c2cc(C)[nH]c(=O)c2C(=O)N2CCCCC2)c2ccc(OCCC)cc2)cc1` gave an IC50 of over 10 µM (cell growth or viability, MTT; 72 h).
`CCCCCCCC(=O)NCCCC[C@H](N)C(=O)NCCCNCCCCNCCCN` has an EC50 of 2 µM (cell growth; 6 days, together with: DFMO 5.0 mM, spermidine 0.5 µM, aminoguanidine 1.0 mM).
With `CCN1C(=O)C(n2nc(-c3c(O)c4ccccc4oc3=O)cc2-c2ccc(Br)cc2)c2cc(Br)ccc21` (stereo not shown) the IC50 was 47.2 µM (cell growth or viability, SRB; 72 h).
`Cc1cc(C(=O)/C(=C\c2ccccc2C)c2ccccc2C)c(C(=O)N2CCCCC2)c(=O)[nH]1` has an IC50 of over 10 µM (cell proliferation, MTT; 72 h).
With `O=C1C(n2nc(-c3c(O)c4ccccc4oc3=O)cc2-c2ccc(Br)cc2)c2cc(Br)ccc2N1Cc1ccccc1` (stereo not shown) the IC50 was 5.47 µM (cell growth or viability, SRB; 72 h).
`C=CC(=O)Nc1cccc(C(=O)Nc2ccc(Nc3nccc(-c4cccnc4)n3)cc2)c1` has an IC50 of about 0.03 µM (c-Jun phosphorylation, microscopy, refers to: phospho-c-Jun Ser73; together with: anisomycin).
With `O=C1C(n2nc(-c3c(O)c4ccccc4oc3=O)cc2-c2ccc(F)cc2)c2cc(Cl)ccc2N1Cc1ccccc1` (stereo not shown) the IC50 was 1.1 µM (cytotoxicity, SRB; 72 h).
For `COc1cc(C(=O)c2cccc(-c3ccc(C)c(NC(C)=O)c3)n2)cc(OC)c1OC`, the IC50 was 0.0288 µM (cell growth or viability, MTS; 72 h).

Repeated from above:
For `Cn1cnc2c(F)c(Nc3ccc(Br)cc3Cl)c(C(=O)NOCCO)cc21`, the EC50 was 0.042 µM (cell proliferation).
